# Results pooled from the literature.
# Parts stem from different laboratories: compare values within a part only.

# Set 1 — technique: RNA Bind-n-Seq; molecule type: RNA; sample: in vitro; tested at: 365 nM; reference: no-protein control; reading: higher = stronger binding
# Target: RNA binding protein fox-1 homolog 2, RRM domain, GST-SBP tag (RBFOX2, Homo sapiens, UniProt O43251-10, residues 100-194)
# Setting: natural RNA segment, single round, ends assumed
# Residues (chain): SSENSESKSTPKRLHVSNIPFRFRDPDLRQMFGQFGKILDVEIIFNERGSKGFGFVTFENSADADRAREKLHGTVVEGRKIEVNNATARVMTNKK
Strand,RBNS enrichment (R)
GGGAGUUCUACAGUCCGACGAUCGGGUUUUGUAUGCCCGUGUUCCUUAAAGCCAAGGGUUUGAAAGCCACGCUGGUCUUCUGAGAUUCCAAGUCCUUCCCCAGCUGACAUGCCCGUAGCCCCUUCCGACUCAGUGGAAUUCUCGGGUGCCAA,0.455
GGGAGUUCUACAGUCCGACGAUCCAUACUAUUAGGCACACUUUCCCCUUAGAGCCCCCUAAGUUUUUCCCAGACGAAUCUUUAUAAUUUCUUUCCAAAGAUACCAAAUAAACUUCAGUGUUUUCAUCUAAUUCUGGAAUUCUCGGGUGCCAA,0.895
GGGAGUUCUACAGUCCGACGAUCUGCCUAGCCCAUCAUCUAUCUAACCGGUCCUUGAUUUAAUAAACACUAUAAAAAGUUCUUUGCUUUACUCAGCCAGUGUCCACUGGCAAUCCCUGGGCUGGGCUCUGGGGUGGAAUUCUCGGGUGCCAA,0.527
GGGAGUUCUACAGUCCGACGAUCUUAUAAAAUGCUAGUAAUUUAGAACCCUCCCCCCAAAUCAAGGAGGCAAAAAAUAACGCACUAGUCACUGAAGUUCAUCCUCAGUUACCUCGAUAGGGUAGGUAGAUUCCUGGAAUUCUCGGGUGCCAA,0.27
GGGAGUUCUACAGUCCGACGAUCCAGGGUUGGAUCCAUAAGGCUUUAAUCUGGCCCUGAAAGCAGUGUUGCCGCUUCAGACAGUACUGCGAGCAAUGGCUGCCUUGUCGGAGUGAGUGUGUAGCUGGACACCUUGGAAUUCUCGGGUGCCAA,0.314
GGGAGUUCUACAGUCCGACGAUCUGCCAAAAAUGUGUUUUCAGAGGAAAUCUUAUUUUCAUAUUCAGACUUUGUAUUGCCCACUCAUUUGUAUAAGUGCGCUUCGGUACAGCACGGGUCCUGCUCCCGCGAUGUGGAAUUCUCGGGUGCCAA,0.467
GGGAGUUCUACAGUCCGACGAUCAUAGCCAAGAGGGUCAUACAGCCCAGUGGUGUAGAGCAAGACACCAGGUAGCAGUAAUAGAAAACAACCUCACACCAUUUUCACAAUGGCCGCCCAUCCUCGGGGACUGUUGGAAUUCUCGGGUGCCAA,0.33
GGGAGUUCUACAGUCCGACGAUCUAUGACUCAGGAGCCUCCUAGGGCUUAUCAUCAGCCCUCACACCCGCUUCCCCCUCCAACCCACAGCCUUUGCUUCCAGGUGGCAGGAUUACUACUUUGCCUCUUCAGCAUGGAAUUCUCGGGUGCCAA,0.729

# Set 2 — technique: RNA Bind-n-Seq; molecule type: RNA; sample: in vitro; tested at: 20 nM; setting: 6-mer, flanks averaged, single round; added: 150 mM KCl; reference: input library; reading: higher = stronger binding
# Target: TAR DNA-binding protein 43, full length, His tag (TARDBP, Homo sapiens, UniProt Q13148, residues 1-414)
Strand,6-mer enrichment (R)
CCGCCA,0.679
AAACUG,0.637
CAGUUU,0.625
UUAGCA,0.629
CGGGCU,1.76
GGGUGC,3.45
GCUAGU,0.844
AUUCGA,0.572
CUACGA,0.628
UCAUCA,0.538
GGUAUU,0.825
UAGUCU,0.571
CCCAUG,0.711
UCCCUU,0.667
UGGUUU,0.746
UGACAA,0.676
GCGGAA,1.64

# Set 3 — technique: RNA Bind-n-Seq; molecule type: RNA; sample: in vitro; tested at: 1 µM; setting: whole 134-nt RNA, ends assumed; added: 150 mM KCl; reference: input library; reading: higher = stronger binding
# Target: Ras GTPase-activating protein-binding protein 1, RRM domain (G3BP1, Homo sapiens, UniProt Q13283)
# Chain of UniProt Q13283 (whole entry, looked up): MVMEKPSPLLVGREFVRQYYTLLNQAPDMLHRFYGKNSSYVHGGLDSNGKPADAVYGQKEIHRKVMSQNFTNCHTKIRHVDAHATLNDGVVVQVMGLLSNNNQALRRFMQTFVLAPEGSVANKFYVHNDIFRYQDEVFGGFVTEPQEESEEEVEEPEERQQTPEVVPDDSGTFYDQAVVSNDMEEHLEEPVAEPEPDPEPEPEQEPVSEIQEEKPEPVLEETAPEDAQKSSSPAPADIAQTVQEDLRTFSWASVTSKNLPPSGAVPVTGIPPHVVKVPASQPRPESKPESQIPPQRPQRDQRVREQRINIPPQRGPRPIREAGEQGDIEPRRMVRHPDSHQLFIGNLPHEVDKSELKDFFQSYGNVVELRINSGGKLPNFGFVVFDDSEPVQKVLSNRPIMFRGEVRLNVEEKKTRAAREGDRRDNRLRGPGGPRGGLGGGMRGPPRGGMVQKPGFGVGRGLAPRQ
Strand,log2 enrichment
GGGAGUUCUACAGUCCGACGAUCCAAGUCCUGUGCUACACAUCGUAUGUACCGAAUCGGGCCCCGGCCCCGGCCCCGGGAAAGUAUUAUGUUACGCCGUUCGGAUCUGCACUUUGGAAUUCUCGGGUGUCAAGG,-1.44
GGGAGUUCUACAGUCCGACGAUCUUUCUUCCCCCACAGUUCAUCCAUGAGCUCGGAUUUCCCACAUUACAACUUCAGGAUGCCUAAUAUUGGAUUCCAGAAUCUGCCUCUCAAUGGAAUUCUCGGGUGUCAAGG,0.224
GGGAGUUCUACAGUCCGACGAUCGUCCUGUGCUACACAUCGUAUGUACCGAAUCAAACCCAAACCCCCAAACCCCCCCAAAAAAGUAUUAUGUUACGCCGUUCGGAUCUGCACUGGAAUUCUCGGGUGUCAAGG,-0.219
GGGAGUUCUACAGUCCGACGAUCUCUCAGCACCCUCGUGAAACUGGACAAGAAGCCAGUGGAGACCAACGGUCCUGAUGCCAAUCACGAGUACAGUACAAGCAGCCAGCAUAUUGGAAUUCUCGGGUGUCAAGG,-0.0706
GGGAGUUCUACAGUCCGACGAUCCCUCAAGUCCUGUGCUACACAUCGUAUGUACCGAAUCGGAAAGGUGGAAAGGAAAGUAUUAUGUUACGCCGUUCGGAUCUGCACUUCCAGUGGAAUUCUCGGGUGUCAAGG,-0.0954
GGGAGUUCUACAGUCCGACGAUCUAACUUUAGAGGAGGAUCUGAUGGAUAUGGCAGUGGACGUGGAUUUGGGGAUGGCUAUAAUGGGUAUGGAGGGGGACCUGGAGGUGGCAAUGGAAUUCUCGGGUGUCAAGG,-0.527
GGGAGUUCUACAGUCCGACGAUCUCCUGUGCUACACAUCGUAUGUACCGAAUCGGCCCCCCCGGGCCCCCCCGGCCCCCCCGGAAAGUAUUAUGUUACGCCGUUCGGAUCUGCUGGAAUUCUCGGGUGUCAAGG,-0.365
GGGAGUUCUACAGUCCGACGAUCACCAUGCAGGUGGGCAUCUUUGGGAAGUGGGGCAAGGGGGGGAUAGGGAGGGGGGUAACACUUUGGGAACAGGUGGUCCUAGGUCGUUUCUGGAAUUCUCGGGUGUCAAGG,0.689
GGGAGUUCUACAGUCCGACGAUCAAGUCCUGUGCUACACAUCGUAUGUACCGAAUCGGCCCGGGGCCCGGGGCCCGGGGAAAGUAUUAUGUUACGCCGUUCGGAUCUGCACUUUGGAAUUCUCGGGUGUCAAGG,-1.48

# Set 4 — technique: universal PBM; molecule type: double-stranded DNA, one strand shown; sample: in vitro; tested at: 600 nM; reading: higher = stronger binding
# Target: Sal-like protein 4, full length isoform A (SALL4, Homo sapiens, UniProt Q9UJQ4, residues 1-1053)
# Chain of UniProt Q9UJQ4 (whole entry, looked up): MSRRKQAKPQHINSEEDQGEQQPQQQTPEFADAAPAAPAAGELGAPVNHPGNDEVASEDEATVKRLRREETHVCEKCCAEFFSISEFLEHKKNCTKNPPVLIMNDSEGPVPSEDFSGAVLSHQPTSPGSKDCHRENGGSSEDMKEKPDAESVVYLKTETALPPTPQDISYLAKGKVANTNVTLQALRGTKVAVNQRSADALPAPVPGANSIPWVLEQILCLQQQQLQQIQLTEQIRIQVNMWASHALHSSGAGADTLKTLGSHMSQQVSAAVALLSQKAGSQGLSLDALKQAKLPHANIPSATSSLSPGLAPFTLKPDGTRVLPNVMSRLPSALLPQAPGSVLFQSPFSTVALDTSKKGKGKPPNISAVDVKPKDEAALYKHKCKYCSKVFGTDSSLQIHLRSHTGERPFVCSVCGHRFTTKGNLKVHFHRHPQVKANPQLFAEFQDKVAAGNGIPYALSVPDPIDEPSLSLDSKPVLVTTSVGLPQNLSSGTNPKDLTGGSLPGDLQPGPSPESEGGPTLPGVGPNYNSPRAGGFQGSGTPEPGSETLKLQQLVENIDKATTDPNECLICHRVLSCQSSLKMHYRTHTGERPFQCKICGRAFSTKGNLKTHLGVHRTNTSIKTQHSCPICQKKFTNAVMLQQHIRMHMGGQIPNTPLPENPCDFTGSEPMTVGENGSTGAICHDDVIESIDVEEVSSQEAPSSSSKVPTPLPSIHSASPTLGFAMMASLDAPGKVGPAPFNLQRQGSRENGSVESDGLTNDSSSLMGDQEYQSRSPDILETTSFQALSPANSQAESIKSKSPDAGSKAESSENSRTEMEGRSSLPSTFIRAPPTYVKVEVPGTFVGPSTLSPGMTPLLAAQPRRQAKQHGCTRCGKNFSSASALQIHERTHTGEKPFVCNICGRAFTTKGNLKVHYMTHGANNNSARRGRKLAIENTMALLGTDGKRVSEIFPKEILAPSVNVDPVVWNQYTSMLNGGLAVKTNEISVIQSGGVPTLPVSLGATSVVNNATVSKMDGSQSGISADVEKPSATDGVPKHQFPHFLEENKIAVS
# Setting: 8-mer, flanks averaged, mean of replicates
Strand,E-score
CCGGCACA,-0.267
GGATAGCC,-0.209
TCATTCGA,0.147
ATACTTTG,0.268
CGTTCCCC,-0.211
GTCCCACA,-0.208
GATCGCCA,-0.0468
AGAGGGAT,-0.0293
CCTACCTC,-0.22
CCGAGTGC,-0.219
GATGGACA,-0.0438
ACCGGAAT,-0.161
GGCACGAA,-0.181
CCAGCACG,-0.246
ATGTGCGG,-0.138
CGATCACA,0.12
GAGCCGCA,-0.258
CGAGCTAC,-0.0713
GTAGCAAA,0.1
TGCTCACA,-0.0825
GAACCGCC,-0.294
ATGTACGG,0.0481
AGATTAGG,-0.00756
AGCAATCG,0.0138
CTGGCGCA,-0.234

# For quick reference, copied from above (set 2):
Strand,6-mer enrichment (R)
UGACAA,0.676
GGUAUU,0.825
CAGUUU,0.625
AAACUG,0.637
UCCCUU,0.667
CCGCCA,0.679
GCUAGU,0.844
UCAUCA,0.538
